Assay results from different studies.
A part holds a random share of what one study measured. “And” joins repeats or separate records; there may be more than shown.
Sequence of UniProt P61075 (whole entry, looked up): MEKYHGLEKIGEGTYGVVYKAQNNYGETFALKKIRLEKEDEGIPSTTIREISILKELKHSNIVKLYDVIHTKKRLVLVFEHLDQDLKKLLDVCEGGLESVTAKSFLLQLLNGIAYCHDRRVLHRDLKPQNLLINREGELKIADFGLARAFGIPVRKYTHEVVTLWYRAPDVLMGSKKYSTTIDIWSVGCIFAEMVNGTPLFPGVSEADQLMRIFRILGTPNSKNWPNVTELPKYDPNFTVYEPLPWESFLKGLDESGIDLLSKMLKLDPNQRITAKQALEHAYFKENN
Sequence of UniProt P62344 (whole entry, looked up): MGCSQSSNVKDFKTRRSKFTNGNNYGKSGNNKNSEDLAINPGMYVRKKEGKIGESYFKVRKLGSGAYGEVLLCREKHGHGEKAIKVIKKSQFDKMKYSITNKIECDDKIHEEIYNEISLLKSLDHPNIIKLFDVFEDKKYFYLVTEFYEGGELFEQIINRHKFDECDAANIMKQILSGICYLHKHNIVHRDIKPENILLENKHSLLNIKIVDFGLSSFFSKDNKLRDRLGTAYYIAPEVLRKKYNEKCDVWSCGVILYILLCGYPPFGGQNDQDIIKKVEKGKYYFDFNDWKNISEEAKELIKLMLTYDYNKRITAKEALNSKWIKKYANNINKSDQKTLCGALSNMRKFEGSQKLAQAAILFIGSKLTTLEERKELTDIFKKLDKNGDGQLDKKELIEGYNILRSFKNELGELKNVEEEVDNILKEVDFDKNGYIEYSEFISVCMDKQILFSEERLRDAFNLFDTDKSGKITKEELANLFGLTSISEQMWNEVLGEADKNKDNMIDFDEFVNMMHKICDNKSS
Sequence of UniProt P9WI81 (whole entry, looked up): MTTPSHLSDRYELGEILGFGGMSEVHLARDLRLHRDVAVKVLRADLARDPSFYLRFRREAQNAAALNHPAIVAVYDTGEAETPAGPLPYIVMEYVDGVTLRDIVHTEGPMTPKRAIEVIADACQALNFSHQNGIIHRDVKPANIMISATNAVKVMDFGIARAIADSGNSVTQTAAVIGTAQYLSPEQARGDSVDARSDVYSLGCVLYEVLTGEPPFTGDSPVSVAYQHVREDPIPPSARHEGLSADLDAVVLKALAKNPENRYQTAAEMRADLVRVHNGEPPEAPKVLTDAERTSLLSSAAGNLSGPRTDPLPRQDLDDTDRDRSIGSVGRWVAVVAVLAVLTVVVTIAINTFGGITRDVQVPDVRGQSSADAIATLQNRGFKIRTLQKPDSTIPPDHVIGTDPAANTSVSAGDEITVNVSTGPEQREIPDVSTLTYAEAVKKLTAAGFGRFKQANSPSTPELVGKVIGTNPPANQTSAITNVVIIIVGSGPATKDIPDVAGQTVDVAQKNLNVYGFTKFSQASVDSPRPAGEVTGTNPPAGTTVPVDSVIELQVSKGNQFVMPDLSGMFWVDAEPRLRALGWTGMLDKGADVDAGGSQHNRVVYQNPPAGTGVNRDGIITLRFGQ

Block 1 — organism: Vesicular stomatitis virus; observed: pseudovirus infection; technique: FDA-approved drug library screen; tested at: concentration not given; setting: VSV-G control pseudotype; baseline: vehicle
For `CN1CCN(C2=Nc3ccccc3Oc3ccc(Cl)cc32)CC1.O=C(O)CCC(=O)O`, the GFP-positive cells was 112%.
`O=C(O)C(O)C(O)C(=O)O.c1cnc2cc3c(cc2n1)[C@@H]1CNC[C@H]3C1` has a GFP-positive cells of 142%.
`C[C@@H](Oc1cc(-c2cnn(C3CCNCC3)c2)cnc1N)c1c(Cl)ccc(F)c1Cl` has a GFP-positive cells of 60%.
`C[S+](C)[O-]` has a GFP-positive cells of 108%.
`O=C(c1cc(Cc2n[nH]c(=O)c3ccccc23)ccc1F)N1CCN(C(=O)C2CC2)CC1` has a GFP-positive cells of 94.7%.
With `CC(=O)[C@@]1(O)CC[C@H]2[C@@H]3CCC4=CC(=O)CC[C@]4(C)[C@H]3CC[C@@]21C` the GFP-positive cells was 105%.
The GFP-positive cells of `[I-].[K+]` is reported as 86.5%.
The GFP-positive cells of `NC(=O)NO` is reported as 89.8%.
For `C[C@]12C=CC(=O)C=C1CC[C@@H]1[C@@H]2[C@@H](O)C[C@@]2(C)[C@H]1CC[C@]2(O)C(=O)COP(=O)([O-])[O-].[Na+].[Na+]`, the GFP-positive cells was 95%.
`C[C@]12CC[C@@H]3c4ccc(O)cc4CC[C@H]3[C@@H]1CC[C@@H]2OC(=O)CCC1CCCC1` has a GFP-positive cells of 89%.
`Cl.Cn1c(CCCC(=O)O)nc2cc(N(CCCl)CCCl)ccc21` gave a GFP-positive cells of 113%.
`Cl.N=C(N)NN` gave a GFP-positive cells of 78.7%.
`Nc1ccc(S(=O)(=O)c2ccc(N)cc2)cc1` has a GFP-positive cells of 69%.
`O=C1c2ccccc2C(=O)C1c1ccccc1` gave a GFP-positive cells of 115%.

Block 2 — organism: Cryptosporidium parvum; technique: time-kill; cells: HCT-8; strain: nanoluciferase-expressing; baseline: DMSO control
Structure (SMILES): CNC(=O)c1ccc(-c2cnn3ccc(C(=O)N(C)c4ccc(Cl)c(C(=O)OC)c4)cc23)cc1
0.02743 µM, 0 h — luminescence remaining: 102% and 93.1% and 113% and 94.5% and 106% and 97.9% and 85.3%.
It gave 40.7% and 41.3% for luminescence remaining (2.222 µM, 24 h).
0.02743 µM, 72 h — luminescence remaining: 13.5% and 8.52%.
For 0.2469 µM, 24 h: luminescence remaining read 29.5% and 41.8%.
0.00305 µM, 72 h — luminescence remaining: 79.6% and 95.1%.
20 µM, 0 h — luminescence remaining: 97.9% and 93.1% and 102% and 106% and 113% and 85.3% and 94.5%.
For 0.2469 µM, 0 h: luminescence remaining read 103% and 85.9% and 92% and 105% and 117% and 94.1% and 101% and 102%.
For 20 µM, 24 h: luminescence remaining read 42.7% and 38.6%.
6.667 µM, 48 h — luminescence remaining: 11.8% and 13.6%.
For 0.2469 µM, 8 h: luminescence remaining read 92.2% and 111%.

Block 3 — organism: Sarcocystis neurona; observed: parasite growth; tested at: 10 µM; time: 96 h; setting: secondary screen
The inhibition of `CNCC(O)c1ccc(O)cc1` (centres unmarked) is reported as -17.3%.
The inhibition of `CN1C(=O)CN=C(c2ccccc2)c2cc([N+](=O)[O-])ccc21` is reported as -15.5%.
`O=C1CN=C(c2ccccc2)c2cc([N+](=O)[O-])ccc2N1` has an inhibition of -34.1%.
`Cc1ncc2n1-c1ccc(Cl)cc1C(c1ccccc1F)=NC2` gave an inhibition of -13.7%.
For `C[C@]12C/C(=C/O)C(=O)C[C@@H]1CC[C@@H]1[C@@H]2CC[C@@]2(C)[C@H]1CC[C@]2(C)O`, the inhibition was -20.9%.
`COc1ccc(C(CN(C)C)C2(O)CCCCC2)cc1` (centres unmarked) has an inhibition of -25.2%.
For `NC(=O)C[S+]([O-])C(c1ccccc1)c1ccccc1` (centres unmarked), the inhibition was -10.9%.
With `CC(NC(C)(C)C)C(=O)c1cccc(Cl)c1` (centres unmarked) the inhibition was -0.7%.
For `Cc1nnc2n1-c1ccc(Cl)cc1C(c1ccccc1)=NC2`, the inhibition was -10%.
`C=C1C[C@@H]2[C@H](CC[C@]3(C)C(=O)CC[C@@H]23)[C@@]2(C)C=CC(=O)C=C12` has an inhibition of -23%.

Mixed results
With `CNC(=O)Nc1ccc2c(c1)CC[C@@]21OC(=O)N(CC(=O)N(Cc2ccc(F)cc2)[C@@H](C)C(F)(F)F)C1=O` the remaining binding was 83% (pknB (Mycobacterium tuberculosis, UniProt P9WI81); cell-free assay, competition with immobilised ligand; 1 µM).
With `Cc1cc(NC(=O)c2cccc(S(F)(F)(F)(F)F)c2)cc(-n2ccn3nc(-c4cccnc4)cc23)c1` the viability was 116% (sample E normal colon organoid; CellTiter-Glo; 1 µM, 4 days; baseline: DMSO).
`Cn1cc(Cl)c2c(Oc3c(F)cc(Nc4cc(Cl)nc(N)n4)cc3F)ccnc21` gave a remaining binding of 88% (CDPK1 (Plasmodium falciparum, UniProt P62344); cell-free assay, competition with immobilised ligand; 0.1 µM).
With `O=C(NC[C@@H]1[C@H]2CN(C(=O)OCc3cc(C(F)(F)F)cc(C(F)(F)F)c3)C[C@@H]12)c1ccc2[nH]nnc2c1` the remaining binding was 100% (CRK2 (Plasmodium falciparum, UniProt P61075); cell-free assay, competition with immobilised ligand; 1 µM).

Excerpt of the above (block 1):
`O=C(c1cc(Cc2n[nH]c(=O)c3ccccc23)ccc1F)N1CCN(C(=O)C2CC2)CC1` has a GFP-positive cells of 94.7%.
With `CC(=O)[C@@]1(O)CC[C@H]2[C@@H]3CCC4=CC(=O)CC[C@]4(C)[C@H]3CC[C@@]21C` the GFP-positive cells was 105%.
The GFP-positive cells of `[I-].[K+]` is reported as 86.5%.
The GFP-positive cells of `NC(=O)NO` is reported as 89.8%.
For `C[C@]12C=CC(=O)C=C1CC[C@@H]1[C@@H]2[C@@H](O)C[C@@]2(C)[C@H]1CC[C@]2(O)C(=O)COP(=O)([O-])[O-].[Na+].[Na+]`, the GFP-positive cells was 95%.
